Measured values gathered from unrelated publications.
Each numbered part is a random draw from the data of one study; scales do not carry over between parts.

Set 1 — observed: enzyme activity; mode: inhibitor; concentration: 0.5 µM; baseline: control; measurement: remaining activity
Target: Ribosomal protein S6 kinase beta-1 (RPS6KB1, Homo sapiens, UniProt P23443)
Sequence of UniProt P23443 (whole entry, looked up): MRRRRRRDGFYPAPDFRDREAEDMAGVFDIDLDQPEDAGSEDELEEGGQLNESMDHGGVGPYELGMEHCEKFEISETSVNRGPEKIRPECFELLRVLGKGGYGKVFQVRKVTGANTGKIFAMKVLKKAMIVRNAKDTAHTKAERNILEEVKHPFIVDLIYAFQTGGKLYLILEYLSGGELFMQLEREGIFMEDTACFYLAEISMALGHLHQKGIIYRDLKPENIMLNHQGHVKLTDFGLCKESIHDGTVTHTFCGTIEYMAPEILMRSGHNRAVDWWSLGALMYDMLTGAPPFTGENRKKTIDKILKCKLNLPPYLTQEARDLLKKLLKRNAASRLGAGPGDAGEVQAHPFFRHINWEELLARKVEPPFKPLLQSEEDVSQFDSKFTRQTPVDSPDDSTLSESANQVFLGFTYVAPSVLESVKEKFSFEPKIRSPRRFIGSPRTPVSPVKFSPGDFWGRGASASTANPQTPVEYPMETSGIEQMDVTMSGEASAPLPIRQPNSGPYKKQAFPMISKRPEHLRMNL
CCCC(=O)Oc1ccc2[nH]c(C(=O)c3cc4ccccc4[nH]3)cc2c1: 94.5%
Fc1ccc(-c2nc3n(c2-c2ccncc2)CCS3)cc1: 108%
COc1ccc(S(=O)(=O)N(CCO)c2ccccc2CN(C)CC=Cc2ccc(Cl)cc2)cc1: 103%
Cc1cncc2cccc(S(=O)(=O)N3CCCN(C(=O)CN)C[C@@H]3C)c12: 93.3%
N#CC(=C(N)Sc1ccc(N)cc1)c1ccccc1C(F)(F)F: 102%
Nc1nc(Nc2ccc(S(N)(=O)=O)cc2)nn1C(=O)c1c(F)cccc1F: 92.1%
Nc1ncnc2c1cnn2-c1ccccc1: 103%
CSc1nc(-c2ccnc(N[C@@H](C)c3ccccc3)c2)c(-c2ccc(F)cc2)[nH]1 (racemic): 91.2%
CC(=O)c1ccc(N2CCOCC2)cc1O: 95.2%
CC[n+]1c(/C=C/N(C)c2ccccc2)n(-c2ccccc2)c2ccc(-c3nc4ccccc4s3)cc21: 96.8%
Cc1cc(Nc2nc(-c3ccccc3)nc3ccccc23)n[nH]1: 60.4%
CC#CC(=O)Nc1cc2c(Nc3ccc(F)c(Cl)c3)ncnc2cn1: 97.1%
COc1cc(Nc2c(C#N)cnc3cc(OCCCN4CCN(C)CC4)c(OC)cc23)c(Cl)cc1Cl: 87.7%
Nc1nccc(-c2c(-c3ccc(F)cc3)ncn2C2CCNCC2)n1: 98.2%
Cc1ccc(NC2=CC(=O)c3sc(C)nc3C2=O)cc1: 97.2%
CCc1[nH]c(-c2ccc(OC)cc2)nc1-c1ccncc1: 98.4%
NC(=O)c1ccc(N(C(N)=O)c2c(F)cccc2F)nc1-c1ccc(F)cc1F: 100%
Oc1ccc(Nc2nc(-c3ccc(Cl)cc3)cs2)cc1: 104%
O=C1NC(=O)C(c2c[nH]c3ccccc23)=C1c1c[nH]c2ccccc12: 75.6%
CC(C)(C)n1nc(Cc2cccc3ccccc23)c2c(N)ncnc21: 98.7%

Set 2 — species: mouse; medium: microsomes or S9; concentration: 2 µM; time: 0.5 h; measurement: remaining compound
Cc1ccc(N(Cc2ccc(F)cc2)N(C)CC(=O)NC2CCCCC2)cc1: 0.115%
CCC(C)c1ccccc1OCCn1cnc2ccccc21 (centres unmarked): 0.0128%
Cc1ccc(Cl)cc1N1CCN(Cc2nc3c([nH]2)c(=O)[nH]c(=O)n3C)CC1: 65%
N#Cc1cc(NC(CCO)C2CCOCC2)nc2ccc(Cl)cc12 (centres unmarked): 8.06%
O=C(Nc1cc(F)cc(F)c1)N1CCC(O)(CO)C1 (centres unmarked): 68.6%
NC1=NC(c2ccc(Cl)cc2)N2C(=N1)N=C(O)c1ccccc12 (centres unmarked): 27.2%
Cn1c(=O)c2c(nc(N3CCCCC3)n2CC/N=C2\CCCN2)n(C)c1=O: 89.2%
Cc1cccc(S(=O)(=O)NCCCC(C)C(=O)O)c1Br (centres unmarked): 92.6%
CC1(C)C=C(N(Cc2ncc[nH]2)c2ccc(Cl)cc2Cl)c2ncccc2O1: 0.00562%
Cc1cc(Br)cc(C)c1NCc1nccn1CC(=O)NC(N)=O: 38.7%
CCC(C)(C)C1CCC2(CC1)NC(=O)N(CC(=O)N1CCC(N3CCNC3=O)CC1)C2=O (centres unmarked): 45.9%
COC(=O)c1c(C)nc2c(c1OS(=O)(=O)C(F)(F)F)CCN2C: 0.163%

Set 3 — observed: enzyme activity; mode: inhibitor; concentration: 10 µM; measurement: inhibition
Target: Calcium/calmodulin-dependent protein kinase type II subunit alpha (CAMK2A, Homo sapiens, UniProt Q9UQM7)
Sequence of UniProt Q9UQM7 (whole entry, looked up): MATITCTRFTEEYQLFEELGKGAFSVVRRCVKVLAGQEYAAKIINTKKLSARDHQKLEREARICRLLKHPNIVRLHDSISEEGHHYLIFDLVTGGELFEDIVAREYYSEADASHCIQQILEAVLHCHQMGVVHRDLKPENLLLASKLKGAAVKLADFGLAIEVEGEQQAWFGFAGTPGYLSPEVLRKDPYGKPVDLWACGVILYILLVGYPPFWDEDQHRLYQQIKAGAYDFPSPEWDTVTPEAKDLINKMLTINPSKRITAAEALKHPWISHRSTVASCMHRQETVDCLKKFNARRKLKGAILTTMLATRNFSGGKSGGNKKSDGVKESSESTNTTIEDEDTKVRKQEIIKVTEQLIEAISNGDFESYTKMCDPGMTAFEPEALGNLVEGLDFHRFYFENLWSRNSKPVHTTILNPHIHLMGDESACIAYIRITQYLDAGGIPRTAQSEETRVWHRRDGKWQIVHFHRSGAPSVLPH
Cc1cc2c(C(C)C)c(O)c(O)c(C=O)c2c(O)c1-c1c(C)cc2c(C(C)C)c(O)c(O)c(C=O)c2c1O: -5%
OCCOCCN1CCN(C(c2ccccc2)c2ccc(Cl)cc2)CC1 (centres unmarked): -3%
Cc1cn([C@H]2O[C@@H](CO)[C@H](O)[C@H]2F)c(=O)[nH]c1=O: -1%
CC(C)[C@@H](C)/C=C/[C@@H](C)[C@H]1CC[C@H]2[C@@H]3CC=C4C[C@@H](O)CC[C@]4(C)[C@H]3CC[C@]12C: -45%
COc1cc2c(cc1OC)[C@@H]1Cc3ccc(OC)c(OC)c3C[N@@+]1([O-])CC2: 4%
N[C@@H](CSCSC[C@H](N)C(=O)O)C(=O)O: 23%
Oc1c(I)cc(I)c2cccnc12: -1%
NCCCCCCCC(=O)O: 26%
COc1cc(O)cc(O)c1C(=O)/C=C/c1ccccc1: -2%
COc1cc(-c2oc3cc(O[C@@H]4O[C@H](CO)[C@@H](O)[C@H](O)[C@H]4O)cc(O)c3c(=O)c2O)ccc1O: -31%
COCCOC(=O)C1=C(C)NC(C)=C(C(=O)OC/C=C/c2ccccc2)C1c1cccc([N+](=O)[O-])c1 (centres unmarked): 10%
Oc1cc(O)c2cc(O)c(-c3cc(O)c(O)c(O)c3)[o+]c2c1: -87%
CC(=O)c1c(O)c(C)c(O)c2c1OC1=CC(=O)C(C(C)=O)C(=O)C12C (centres unmarked): -13%
O=C(/C=C/c1ccc(O)c2c1[C@H](C(=O)O[C@H](Cc1ccc(O)c(O)c1)C(=O)O)[C@@H](c1ccc(O)c(O)c1)O2)O[C@H](Cc1ccc(O)c(O)c1)C(=O)O: -3%
c1cnc(N2CCN(Cc3ccc4c(c3)OCO4)CC2)nc1: -1%

Set 4 — organism: Sarcocystis neurona; observed: parasite growth; concentration: concentration not given; setting: secondary screen; measurement: inhibition
CN1CCN(c2nc3cc(C(F)(F)F)ccc3n3cccc23)CC1: -3.6%
Nc1nc(Cl)nc2c1ncn2[C@@H]1O[C@H](CO)[C@@H](O)[C@H]1O: -24.8%
O=C(N[C@H](CO)[C@H](O)c1ccc([N+](=O)[O-])cc1)C(Cl)Cl: -6.8%
C#C[C@]1(O)CC[C@H]2[C@@H]3CCC4=CC(=O)CC[C@@H]4[C@H]3CC[C@@]21C: -20.8%
CS(=O)(=O)O.O=C(O[C@H]1C[C@H]2CC3C[C@@H](C1)N2CC3=O)c1c[nH]c2ccccc12: -26.9%
COc1cc(OC)c(C(=O)CCCN2CCCC2)c(OC)c1.Cl: -42.9%
CC(C)NCC(O)c1ccc(O)c(O)c1.Cl (centres unmarked): 6.6%
CN1C(C(=O)Nc2ccccn2)=C(O)c2ccccc2S1(=O)=O.O: -20.8%
CC(CCCCC(=O)Nc1ccc(C(F)(F)F)cc1)NCCc1cnc[nH]1 (centres unmarked): -7.8%

A few entries again (set 3):
N[C@@H](CSCSC[C@H](N)C(=O)O)C(=O)O: 23%
c1cnc(N2CCN(Cc3ccc4c(c3)OCO4)CC2)nc1: -1%
Cc1cc2c(C(C)C)c(O)c(O)c(C=O)c2c(O)c1-c1c(C)cc2c(C(C)C)c(O)c(O)c(C=O)c2c1O: -5%
